Assay results collected from several papers.
Every numbered part comes from another study and shows a few of its results, in no order. Substitutions count along the parent as printed.
Sequence of UniProt Q9Y2X8 (whole entry, looked up): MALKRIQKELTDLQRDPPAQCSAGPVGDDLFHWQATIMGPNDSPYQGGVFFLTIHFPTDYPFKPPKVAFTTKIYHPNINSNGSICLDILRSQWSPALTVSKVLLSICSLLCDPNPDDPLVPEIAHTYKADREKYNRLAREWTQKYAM

Block 1 — method: protein-binding microarray; molecule type: double-stranded DNA, one strand shown; sample: in vitro; concentration: 250 nM; notes: 60-bp whole probe; together with: salmon DNA 0.4 mg/ml; reference: random background probes; direction: higher = stronger binding; shared flanks, not repeated: GCCTAGCAC … GTCTTGATTCGCTTGACGCTGCTG
Target: Interferon regulatory factor 7, full length, phosphomimetic (IRF7, Homo sapiens, UniProt Q92985, residues 1-503, S101K/S471D/S472D/S475D/S476D/S477D/S483D/S484D/S487D)
Sequence of UniProt Q92985 (whole entry, unmodified, looked up): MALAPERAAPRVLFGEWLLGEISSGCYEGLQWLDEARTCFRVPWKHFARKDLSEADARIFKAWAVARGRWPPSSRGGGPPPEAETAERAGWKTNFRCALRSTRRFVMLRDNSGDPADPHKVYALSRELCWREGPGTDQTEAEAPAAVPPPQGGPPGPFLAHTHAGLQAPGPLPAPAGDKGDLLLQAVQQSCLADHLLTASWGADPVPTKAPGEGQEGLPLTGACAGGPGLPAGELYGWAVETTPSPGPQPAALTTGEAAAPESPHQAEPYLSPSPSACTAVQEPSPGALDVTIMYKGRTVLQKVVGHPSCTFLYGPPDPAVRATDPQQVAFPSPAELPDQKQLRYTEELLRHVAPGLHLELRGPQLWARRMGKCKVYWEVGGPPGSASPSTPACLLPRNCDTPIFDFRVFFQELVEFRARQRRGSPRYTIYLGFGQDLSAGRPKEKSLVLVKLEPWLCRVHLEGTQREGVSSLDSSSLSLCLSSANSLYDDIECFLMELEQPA
`TTATGGTGTGGAGAAGGCACGTGCTAG` gave a log fluorescence of -0.953 z-score.
`TTAGAAATGAGTCTCGATTAGTGCTAG` gave a log fluorescence of 1.4 z-score.
The log fluorescence of `GCCGGTATCGGACTGGGGACGTGCTAG` is reported as 0.143 z-score.
For `TTAGATTTCAGTTTCGATTGGTGCTAG`, the log fluorescence was 10.4 z-score.
`TTTGGTATCCTTATCCTTTAGTGCTAG` gave a log fluorescence of 0.521 z-score.
`GACGATTTCAGATCCGAGACGTGCTAG` has a log fluorescence of 0.305 z-score.
For `TTAGGACTGGGGACTGGGCTAGTGCTA`, the log fluorescence was -0.748 z-score.
`TTAGGTGTCGGTTCCGGTTAGTGCTAG` gave a log fluorescence of 1.54 z-score.

Block 2 — target: DDIT3, bZIP domain (human); method: DHFR protein complementation; sample: yeast; reference: wild-type JUN-FOS pair; direction: higher = stronger binding
Notes: single substitutions, most at no-binding floor
Parent: JUN, bZIP domain (human); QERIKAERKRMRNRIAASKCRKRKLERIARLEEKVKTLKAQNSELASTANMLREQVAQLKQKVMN; partner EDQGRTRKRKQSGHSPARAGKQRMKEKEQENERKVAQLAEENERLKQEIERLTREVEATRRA
`L52W` gave a binding fitness of -1.11 natural log.
The binding fitness of `E33I` is reported as -0.368 natural log.
`L31Q` gave a binding fitness of -0.388 natural log.
The binding fitness of `A46F` is reported as -0.21 natural log.
`E32A` gave a binding fitness of 0.192 natural log.
For `V56H`, the binding fitness was -0.351 natural log.
For `L38W`, the binding fitness was -1.1 natural log.
`E33C` has a binding fitness of -0.205 natural log.

Mixed results — sample: yeast; reference: not given
B1: UBOX5 RING domain (UniProt O94941); chain EQPGSILGPECASCKRVFSPYFKKEPVYQLPCGHLLCRPCLGEKQRSLPMTCTACQRPVASQDVLR
P1: viral docking peptide; KGVKRKLFAEDSS; partner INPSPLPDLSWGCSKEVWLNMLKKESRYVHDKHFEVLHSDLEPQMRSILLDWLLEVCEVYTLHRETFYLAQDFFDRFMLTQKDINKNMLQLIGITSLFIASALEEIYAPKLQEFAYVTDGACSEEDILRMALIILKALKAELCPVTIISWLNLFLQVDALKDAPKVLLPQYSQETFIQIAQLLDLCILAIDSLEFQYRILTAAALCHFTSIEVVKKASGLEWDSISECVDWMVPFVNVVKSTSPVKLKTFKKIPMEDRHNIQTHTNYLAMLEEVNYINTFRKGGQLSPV
For `B1 (UBOX5 RING domain)`, “lacZ reporter activity” read 0 (UBE2D4 UBC core domain (UniProt Q9Y2X8); yeast two-hybrid; mostly zero background; higher = stronger interaction).
`P1 K6E`: “normalised enrichment score” 2.95 (CCNE2, cyclin fold, Cln2 fusion (human); yeast growth competition, sequencing; strong parent motif; higher = stronger binding).

A few entries again (block 2):
`E33C` has a binding fitness of -0.205 natural log.
